Assay results pooled from the literature.
Each numbered part is a random draw from the data of one study; scales do not carry over between parts. Changes are numbered by the printed parent chain.

Study 1 — target: UBE2U UBC core domain (UniProt Q5VVX9); technique: yeast two-hybrid; sample: yeast; setting: mostly zero background; relative to: not given; direction: higher = stronger interaction
B1: VPS41 RING domain (UniProt P49754); chain KGVLVDEENICESCLSPILPSDAAKPFSVVVFHCRHMFHKECLPMPSMNSAAQFCNICSAKNRGPGSAI
B2: MKRN1 RING domain (UniProt Q9UHC7); chain FAVQRSKDMVCGICMEVVYEKANPSERRFGILSNCNHTYCLKCIRKWRSAKQFESKIIKSCPECRITSNFVIPSE
B3: RNF111 RING domain (UniProt Q6ZNA4); chain EGTEEDTEEKCTICLSILEEGEDVRRLPCMHLFHQVCVDQWLITNKKCPICRVDIEAQLPSE
B4: TRIM5 RING domain (UniProt Q9C035); chain ILVNVKEEVTCPICLELLTQPLSLDCGHSFCQACLTANHKKSMLDKGESSCPVCRISYQPENIRP
B5: TRIM4 RING domain (UniProt Q9C037); chain EAEDIQEELTCPICLDYFQDPVSIECGHNFCRGCLHRNWAPGGGPFPCPECRHPSAPAALRP
B6: SH3RF2 RING domain (UniProt Q8TEC5); chain DDLTLLDLLECPVCFEKLDVTAKVLPCQHTFCKPCLQRVFKAHKELRCPECRTPVFSNIEAL
B7: DTX4 RING domain (UniProt Q9Y2E6); chain QKVRHPPDEDCTICMERLTAPSGYKGPQPTVKPDLVGKLSRCGHVYHIYCLVAMYNNGNKDGSLQCPTCKTIYGVKTGTQ
B8: RC3H1 RING domain (UniProt Q5TC82); chain QAPQWTDFLSCPICTQTFDETIRKPISLGCGHTVCKMCLNKLHRKACPFDQTTINTDIELL
B9: RNF208 RING domain (UniProt Q9H0X6); chain SSAAAGEPLECPTCGHSYNVTQRRPRVLSCLHSVCEQCLQILYESCPKYKFISCPTCRRETVLFTDYG
B10: TRIM43 RING domain (UniProt Q96BQ3); chain FSHAFQKELTCVICLNYLVDPVTICCGHSFCRPCLCLSWEEAQSPANCPACREPSPKMDFKT
Residues (chain): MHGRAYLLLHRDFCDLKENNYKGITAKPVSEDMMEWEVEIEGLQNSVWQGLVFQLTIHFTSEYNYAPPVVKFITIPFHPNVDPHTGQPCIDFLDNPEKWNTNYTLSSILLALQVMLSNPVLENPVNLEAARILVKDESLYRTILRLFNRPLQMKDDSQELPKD
| Sequence | lacZ reporter activity |
| --- | --- |
| B1 (VPS41 RING domain) | 9440 |
| B2 (MKRN1 RING domain) | 0 |
| B3 (RNF111 RING domain) | 0 |
| B4 (TRIM5 RING domain) | 0 |
| B5 (TRIM4 RING domain) | 0 |
| B6 (SH3RF2 RING domain) | 5450 |
| B7 (DTX4 RING domain) | 0 |
| B8 (RC3H1 RING domain) | 0 |
| B9 (RNF208 RING domain) | 0 |
| B10 (TRIM43 RING domain) | 0 |

Study 2 — target: ATF2, bZIP domain (human); technique: DHFR protein complementation; sample: yeast; relative to: wild-type JUN-FOS pair; direction: higher = stronger binding
Setting: single substitutions, most at no-binding floor
Parent: JUN, bZIP domain (human); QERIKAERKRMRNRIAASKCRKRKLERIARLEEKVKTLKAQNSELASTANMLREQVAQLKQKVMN; partner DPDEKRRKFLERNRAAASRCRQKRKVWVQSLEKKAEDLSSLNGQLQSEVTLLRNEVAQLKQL
| Change | binding fitness [natural log] |
| --- | --- |
| R30Y | -1.25 |
| E33L | -1.37 |
| E32N | -1.01 |
| E32L | -1.37 |
| L31M | -1.54 |
| E44P | -1.5 |
| L38G | -1.49 |
| L52Y | -1.48 |
| T48Q | -1.34 |
| A40R | -1.38 |
| A49L | -1.38 |
| L38Y | -1.45 |
| S43C | -1.45 |
| E44F | -1.48 |
| R30F | -1.38 |
| K39N | -1.42 |
| A29L | -1.41 |
| S47I | -1.42 |
| A29R | -1.31 |
| A49I | -1.18 |
| E54Q | -1.23 |
| N42P | -1.49 |

Study 3 — technique: protein-binding microarray; form: double-stranded DNA, one strand shown; sample: in vitro; tested at: 940 nM top; setting: 60-bp whole probe; added: salmon DNA 0.4 mg/ml; relative to: random background probes; direction: higher = stronger binding; shared flanks, not repeated: GCCTAGCAC … GTCTTGATTCGCTTGACGCTGCTG
Target: Interferon regulatory factor 5, full length, phosphomimetic (IRF5, Homo sapiens, UniProt Q13568-2, residues 1-514, S451D/S453D/S456D/S462D)
| Strand | fitted relative affinity [z-score] |
| --- | --- |
| GACTGACTGGGGACTGGGGACGTGCTA | -0.19 |
| TCACCTCTCTGTCCCCCTTTGTGCTAG | 1.32 |
| TTAGAACTGAGCCTCGATTAGTGCTAG | -0.55 |
| GACGGTATCGACTATCGAGACGTGCTA | 4.22 |
| TTTTTTTTTTACTTCGGGTGGTGCTAG | 1.09 |
| CTCCTGCAGCTGCCCTCCTGGTGCTAG | -0.15 |
| AGAGTAAATTAAGTTAGAACGTGCTAG | -0.363 |
| GACGATATCGGGTATCGGGACGTGCTA | 1.08 |
| TCATTTATATACCTGAAACTGTGCTAG | 0.59 |
| GTTTTACTTTCTATCTCTGTGTGCTAG | 3.67 |
| ATGAGTCTCAAAATTAGAGAGTGCTAG | 0.512 |
| AGCAAATTATATCTTATATCGTGCTAG | 0.245 |
| GACGATTTCGAGACTGGAGACGTGCTA | 0.176 |
| ATAGAACTGGGGTATCGATTAGTGCTA | 2.9 |
| TTAGGTTGCCTACTGCTTTAGTGCTAG | -0.429 |
| TCATCTTTCCTTCTTGAACTGTGCTAG | 1.44 |
| TTTGCTTTCTTTTTGCACTCGTGCTAG | 1.38 |
| GACGAACTGGGGACAGGAGACGTGCTA | 0.554 |
| GACGGATTCGGTTCCGGGACGTGCTAG | 1.17 |
| TTAGGACCGCTTTTCCTTTAGTGCTAG | 0.035 |
| GACGATTTCAATCTCGAGACGTGCTAG | 0.243 |
| TCATCTTTTTTGTTCCAACTGTGCTAG | 1.58 |
| TTAGTTCTGAGTCTTCCCTTGTGCTAG | 0.224 |
| GACGGTATCGACTATCGGGGCGTGCTA | 5.07 |
| TTACGTTTCGGGTTTCGGTTAGTGCTA | 9.16 |

Study 4 — technique: universal PBM; form: double-stranded DNA, one strand shown; sample: in vitro; tested at: 600 nM; direction: higher = stronger binding
Target: Sal-like protein 4, full length isoform A (SALL4, Homo sapiens, UniProt Q9UJQ4, residues 1-1053)
Sequence of UniProt Q9UJQ4 (whole entry, looked up): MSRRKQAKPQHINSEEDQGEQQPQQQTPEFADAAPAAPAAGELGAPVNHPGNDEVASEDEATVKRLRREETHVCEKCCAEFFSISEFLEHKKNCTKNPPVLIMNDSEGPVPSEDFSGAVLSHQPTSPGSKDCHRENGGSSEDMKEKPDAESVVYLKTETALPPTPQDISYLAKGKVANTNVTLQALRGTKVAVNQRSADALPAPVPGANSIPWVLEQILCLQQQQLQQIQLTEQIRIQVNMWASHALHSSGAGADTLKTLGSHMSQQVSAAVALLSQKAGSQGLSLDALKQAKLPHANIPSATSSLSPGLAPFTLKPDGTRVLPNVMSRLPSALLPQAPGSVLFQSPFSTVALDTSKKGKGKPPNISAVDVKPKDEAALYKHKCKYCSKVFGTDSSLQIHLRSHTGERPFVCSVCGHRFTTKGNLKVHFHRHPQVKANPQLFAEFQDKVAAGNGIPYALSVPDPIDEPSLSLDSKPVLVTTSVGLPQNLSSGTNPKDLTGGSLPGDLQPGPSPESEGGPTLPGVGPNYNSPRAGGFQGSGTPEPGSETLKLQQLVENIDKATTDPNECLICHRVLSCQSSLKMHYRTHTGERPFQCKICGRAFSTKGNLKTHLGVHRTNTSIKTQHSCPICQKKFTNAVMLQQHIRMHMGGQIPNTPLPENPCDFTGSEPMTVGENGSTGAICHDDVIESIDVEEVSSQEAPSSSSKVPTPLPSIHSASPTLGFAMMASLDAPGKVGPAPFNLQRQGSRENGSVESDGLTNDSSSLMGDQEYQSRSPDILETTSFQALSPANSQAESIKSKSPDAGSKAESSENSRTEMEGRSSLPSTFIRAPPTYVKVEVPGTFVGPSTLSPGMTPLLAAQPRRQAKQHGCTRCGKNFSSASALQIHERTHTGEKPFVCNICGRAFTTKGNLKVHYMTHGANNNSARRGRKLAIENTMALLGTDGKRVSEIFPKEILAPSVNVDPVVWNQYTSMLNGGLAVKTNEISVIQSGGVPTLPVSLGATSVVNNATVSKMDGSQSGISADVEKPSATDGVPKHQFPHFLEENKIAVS
Setting: 8-mer, flanks averaged, mean of replicates
| Strand | E-score |
| --- | --- |
| GACGAGAA | 0.159 |
| AAAGAGGC | -0.17 |
| GGTAGTCA | -0.204 |
| AACCCAAG | -0.0552 |
| GATGGGGC | -0.319 |
| GACATGAC | -0.0698 |
| GCCCGAGC | -0.366 |
| CAGAATCG | -0.0484 |
| GGCCATAA | 0.0882 |
| TACTCGCA | 0.0704 |
| ACATAGAC | 0.11 |
| TAAACTGA | 0.169 |
| ACGGCCGT | -0.309 |
| AAGAGTGG | -0.174 |
| ATTTGTTA | 0.272 |
| TTATAAAA | 0.415 |
| CAAGCGGC | -0.171 |
| ACCTTTGC | 0.0324 |
| CGGAAGAC | -0.152 |
| CAGCGCGG | -0.357 |
| AGTCCTTC | -0.209 |
| GATCCTCA | -0.00172 |
| ACAGTGCT | 0.0135 |
| CCATGCGC | -0.226 |
| CAGCGACA | -0.168 |

Study 5 — technique: RNA Bind-n-Seq; form: RNA; sample: in vitro; tested at: 200 nM; setting: whole 134-nt RNA, ends assumed; added: 150 mM KCl; relative to: input library; direction: higher = stronger binding
Target: Fragile X messenger ribonucleoprotein 1, C-terminal low-complexity region (Fmr1, Mus musculus, UniProt P35922)
Shared flanks, not repeated: GGGAGUUCUACAGUCCGACGAUC … UGGAAUUCUCGGGUGUCAAGG
| Strand | log2 enrichment |
| --- | --- |
| UCCUGUGCUACACAUCGUAUGUACCGAAUCGGGGUGGGGUUUUUUUGGGGUUUUUGGGGAAAGUAUUAUGUUACGCCGUUCGGAUCUGCA | 0.997 |
| GUCCUGUGCUACACAUCGUAUGUACCGAAUCGGAAAAAGGAAAAAAAGGUUUUUUUGGAAAGUAUUAUGUUACGCCGUUCGGAUCUGCAC | -1.12 |
| UAACUUUAGAGGAGGAUCUGAUGGAUAUGGCAGUGGACGUGGAUUUGCGGAUGGCUAUAAUGGGUAUGGAGGAGGACCUGGAGGUGGCAA | 0.335 |
| UGGCCCUGGUGGCAUGCGGGGAGGAAGAGGUGGCCUCAUGGAUCGUGGUGGUCCCGGCGGAAUGUUCAGAGGUGGCCGUGGUGGAGACAG | -0.121 |
| UGUGCUACACAUCGUAUGUACCGAAUCGGGUUUUUUUGGGUUUUUUUGGGGUUUUUUUGGGGAAAGUAUUAUGUUACGCCGUUCGGAUCU | 0.178 |
| UGGCCUUGGUGGCAUGCGGGGAGGAAGAGGUGGCCUCAUGGAUCGUGGUGGUCCCGGUGGAAUGUUCAGAGGUGGCCGUGGUGGAGACAG | 0.466 |
| UAACUUUAGAGGAGGAUCUGAUGGAUAUGGCAGUGGACGUGGGUUUGGGGAUGGCUAUAAUGGGUAUGGAGGAGGACCUGGAGGUGGCAA | 0.376 |
| CCUGUGCUACACAUCGUAUGUACCGAAUCGGAAAAAAAGGAAAAAAAGGGAAAAAAAGGGAAAGUAUUAUGUUACGCCGUUCGGAUCUGC | -0.874 |
| UGUGCUACACAUCGUAUGUACCGAAUCGGGGAAAAAGGGGUUUUUUUGGGGUUUUUUUGGGGAAAGUAUUAUGUUACGCCGUUCGGAUCU | 0.319 |
| UUACUUUAGAGGAGGAUCUGAUGGAUAUGGCAGUGGACGUGGAUUUGGGGAUGGCUAUAAUGGGUAUGGAGGAGGACCUGGAGGUGGCAA | 0.349 |
| CCUGUGCUACACAUCGUAUGUACCGAAUCGGGGUGGGGAAAAAAAGGGGUUUUUUUGGGGAAAGUAUUAUGUUACGCCGUUCGGAUCUGC | 0.363 |
| UCCAGCCACUCACCGGCGAUCCAGGUCCAGAACCCCCCUGAUAAGCCGACGUAGGUCCAGAUCUCGAACUUCACCAGUCAGCCGGAGACG | 0.418 |
| UGGGAGGUGGAUUAUGUUUAUUUUUUUAGCUCAUUUCCAGGGGUGGGAAUUUUUUUUUAAUAUGUGUCAUGAAUAAAGUUGUUUUUGAAA | 0.0851 |
| GUCCUGUGCUACACAUCGUAUGUACCGAAUCGGGGAGGGGAAAAAGGGGAAAAAGGGGAAAGUAUUAUGUUACGCCGUUCGGAUCUGCAC | 0.223 |

Study 6 — target: CCNE1, cyclin fold, Cln2 fusion (human); technique: yeast growth competition, sequencing; sample: yeast; setting: strong parent motif; relative to: not given; direction: higher = stronger binding
Parent: CDC25A docking peptide (human); PPHRRRLLFACSP
| Change | normalised enrichment score |
| --- | --- |
| L7H | 0.565 |
| A10V | 1.21 |
| H3I | 0.901 |
| R4T | 0.637 |
| S12E | 1.95 |
| P1S | 2.96 |
| L8N | 2.29 |
| R6G | 0.483 |
| R4H | 0.15 |
| P13I | 1.56 |
| C11Y | 1.11 |
| P2D | 0.65 |
| C11N | 1.14 |
| P2M | 1.44 |
| S12A | 1.24 |
| L8M | 1.12 |
| P1N | 0.589 |
| R4V | 4.16 |

Excerpt of the above (study 2):
| Change | binding fitness [natural log] |
| --- | --- |
| E32N | -1.01 |
| N42P | -1.49 |
| T48Q | -1.34 |
| L52Y | -1.48 |
| L38G | -1.49 |
| K39N | -1.42 |
| L38Y | -1.45 |
